# Measurements pooled from the literature.
# Every numbered part comes from another study and shows a few of its results, in no order. Positions count from the first letter of the parent shown.

# Set 1
# Target: CEP164, C-terminal peptide (human)
# Technique: DHFR complementation, deep sequencing
# Medium: yeast
# Notes: single substitutions, model-inferred values
# Reference: wild type
# Reading: higher = weaker binding
# Starting sequence: PDZK1, PDZ domain 2 (human); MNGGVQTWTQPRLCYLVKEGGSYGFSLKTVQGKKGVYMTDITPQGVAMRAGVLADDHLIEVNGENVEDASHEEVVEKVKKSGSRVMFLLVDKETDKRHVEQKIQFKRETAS; partner HNRVKVYRF
Change,binding free energy change [kcal/mol]
L13R,-0.204
C14F,0.69
R107N,-0.147
V36T,-0.435
A47K,1.66
E76W,0.0626
M48L,0.449
V61I,0.321

# Set 2
# Target: RNA binding protein fox-1 homolog 2, RRM domain, GST-SBP tag (RBFOX2, Homo sapiens, UniProt O43251-10, residues 100-194)
# Technique: RNA Bind-n-Seq
# Form: RNA
# Medium: in vitro
# Tested at: 365 nM
# Notes: natural RNA segment, single round, ends assumed
# Reference: no-protein control
# Reading: higher = stronger binding
# Constant ends, left off below: GGGAGUUCUACAGUCCGACGAUC … UGGAAUUCUCGGGUGCCAA
# Construct (chain): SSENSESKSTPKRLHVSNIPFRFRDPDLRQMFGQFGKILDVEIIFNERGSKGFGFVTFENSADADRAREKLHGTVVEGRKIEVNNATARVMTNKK
Strand,RBNS enrichment (R)
CAAAAUUGUGUUCUAUCUCUACCUCGACAUGGGUGGUUCAACACAAAGUCGGUUAUUGGUGUCUAUUUUGUGUAUUUUCUUUUGUUAAUAAAGAUGCAAUUGAGAAUAUU,0.376
CAGCCAUGAAGUGUCACCAGUAUCUACUACUGUGAAGUCAGCUGUGCUGUUUUCCAUUCGCUUCCACGGCUUCUGCCUCCUGCCAUAAAACCAGCGAGUGUCGUGGUGCA,0.323
UAUGUAAGCUCACAUGGAAGUUUAAGAAUUUCUGUGUUAAUACUUGGAAUAACCCAGAGAAAAGAAGCCAGAAGCCUAAUUCCAGAGAGGAAGGGAAAGAAGUUCUGUAG,0.731
GUAUCUCCAAGAUGAGACUCAACAGGACUUGGAUUUUGAGAAGCCCAGGCUCUAAAUAAUAGCCUCAGGUCAUCAGGGGGACAGACUGAGUGUCUGUGAUCACUAACAGG,0.293
CAUGGGGCUGGACCUGCCCGAUGGGGGCCAGCUCACCCACGGCUACAUGUCUGACGUCAAGCGGAUAUCAGCCACGUCCAUCUUCUUCGAGUCUAUGCCCUAUAAGCUCA,0.888
ACCUCAGAUCAGUAUUGUGCAUUGUAGUCUACCUGCAUGUGAUCUAUGUUGACAUUUCGGGGAUAUUGUGUUCAAGAAUGAUUCCAAAUUUGAGCCACCAAAAUACACUG,8.33
CUCACUGGAGAGAGCAAGCACAGGAAGCUGGCUGCAGUGCCUUCCUCAUGAAGGAUCUACCACAACCCUGGCCUUUUUAAAACUGAGAGUAGCAGAAUUAAUAGAGAAAU,0.404
CCCUGGGAGCCCCCUCCCUGCAACCAGCCUGAGUUCAGCCCCACGGACAAAGGGACACACAGCCCCCAAUGGAGACCAUUGUAAGUGGUGGGGCUGGGAGAGGAGGAACA,0.634

# Set 3
# Target: PABPC1L2, full length, GST fusion (mouse, UniProt A0ABA7IW68)
# Technique: RNAcompete
# Form: RNA
# Medium: in vitro
# Tested at: 20 nM
# Notes: 7-mer, probes averaged, single round
# Reference: mean of 7-mers
# Reading: higher = stronger binding
# Residues (chain): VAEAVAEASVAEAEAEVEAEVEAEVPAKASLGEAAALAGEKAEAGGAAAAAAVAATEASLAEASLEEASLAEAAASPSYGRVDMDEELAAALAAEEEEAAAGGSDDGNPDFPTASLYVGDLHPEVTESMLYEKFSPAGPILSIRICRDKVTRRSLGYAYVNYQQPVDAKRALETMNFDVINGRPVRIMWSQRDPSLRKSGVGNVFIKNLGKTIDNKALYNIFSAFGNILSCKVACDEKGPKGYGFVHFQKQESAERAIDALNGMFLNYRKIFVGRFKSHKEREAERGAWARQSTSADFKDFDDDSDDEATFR
Strand,7-mer Z-score
AAAUCAG,1.45
UCAGUUG,-0.229
CAGAAUG,-0.106
CCAUAGA,-0.0591
AUUCAGA,0.0768
AGCAUUU,-0.151
AACCAAG,0.142
ACUUCCC,-0.391

# Mixed results
SMILES,cell line,assay,setting,scale,endpoint,value
OC[C@H](Cc1ccccc1)Nc1nc(Oc2ccc3c(c2)CCC3)nc2c1ncn2Cc1ccc(-c2ccccc2)cc1,mouse MPNST tumor cells,"high-content immunofluorescence imaging, measured: nuclear SOX9","10 µM, 12 h, mean of 2 replicates","reference: DMSO control, higher = more nuclear SOX9",nuclear SOX9 intensity,106 % of DMSO

# Some of these lines once more (set 2):
Strand,RBNS enrichment (R)
CAGCCAUGAAGUGUCACCAGUAUCUACUACUGUGAAGUCAGCUGUGCUGUUUUCCAUUCGCUUCCACGGCUUCUGCCUCCUGCCAUAAAACCAGCGAGUGUCGUGGUGCA,0.323
UAUGUAAGCUCACAUGGAAGUUUAAGAAUUUCUGUGUUAAUACUUGGAAUAACCCAGAGAAAAGAAGCCAGAAGCCUAAUUCCAGAGAGGAAGGGAAAGAAGUUCUGUAG,0.731
GUAUCUCCAAGAUGAGACUCAACAGGACUUGGAUUUUGAGAAGCCCAGGCUCUAAAUAAUAGCCUCAGGUCAUCAGGGGGACAGACUGAGUGUCUGUGAUCACUAACAGG,0.293
CAUGGGGCUGGACCUGCCCGAUGGGGGCCAGCUCACCCACGGCUACAUGUCUGACGUCAAGCGGAUAUCAGCCACGUCCAUCUUCUUCGAGUCUAUGCCCUAUAAGCUCA,0.888
